Measurements collected from several papers.
“And” joins repeats or separate records; there may be more than shown. ± gives the spread as reported.

Compound | cell line | test | test system | setting | how to read | quantity | result
Cn1c(Nc2nc3ccc(C(F)(F)F)cc3s2)nc2cc(C(=O)NCCOCCO)ccc21 | SH-SY5Y | RNA-seq, refers to: FHL2 mRNA |  | 5 µM, 5 h | reference: untreated cells | fold change | 2.04
NC(=O)NO | HCT-116 | cell growth, live-cell imaging |  | 100 µM, control at 90% confluence |  | cell confluence | 67 ± 9.44%
Cl.Cl.NCCNS(=O)(=O)c1ccc(Cl)c2ccncc12 | SK-OV-3 | ATP | 3D gellan gum culture | 0.1 µM, 4 days | reference: untreated | relative cell number | 96%
CCn1c2ccc(CNC)cc2c2ccc(-c3cc(C)cs3)cc21 | NCI-H1299 expressing p53 Y220C | RT-qPCR |  | 3 µM, 24 h | reference: DMSO | E2F1 mRNA level | no effect
Cc1ccc(-n2c(=O)[nH]cc(C(=O)N3CCc4ccccc43)c2=O)cc1C | BV-2 | refers to: caspase-8 |  | 30 nM, together with: high glucose | reference: high glucose | protein level | decreased
Clc1nc(NCc2ccco2)c2[nH]cnc2n1 | iPSC-derived cardiomyocytes | RNA-seq, refers to: chr12 exon ending 53053574 |  | unit not given | reference: DMSO minus compound | ΔPSI | 0.272
CC(C)NCC(O)c1ccc(O)c(O)c1 (stereo not shown) | mouse ventricular cardiomyocytes |  |  | dose not given, 0.112 s |  | sarcomere length | 1.66 µm
Nc1cccc2c1C(=O)N(C1CCC(=O)NC1=O)C2=O (stereo not shown) | RPMI-8226 | flow cytometry, refers to: CD117 |  | concentration not given | reference: comparator compound alone | surface marker level | 155%
C[C@H](Nc1ccc2c(c1)OCCn1cc(N3C(=O)OC[C@H]3C(F)F)nc1-2)C(N)=O | EFM-19 | cell growth, CellTiter-Glo |  | 120 h |  | Hill coefficient GR curve | 1.23
Cc1nn(-c2nc3c(F)cc(F)cc3s2)c(O)c1C(c1ccc(C(F)(F)F)cc1)c1c(C)nn(-c2nc3c(F)cc(F)cc3s2)c1O | THP1-Dual | western blot |  | 10 µM, together with: HT-DNA | reference: DMSO | phospho-IRF3 to IRF3 ratio | 0.863 and 0.935 and 0.807
CC/C(=N\NC(=O)NCc1cccc(O)c1)c1ccc(O)c(C)c1O | SK-OV-3 | Western blot |  | 10 µM, 1 h, 3D gellan gum culture, unit not given | reference: DMSO | TAZ band intensity | 0.18 ± 0.04
NC(=O)NOCCCCCCCCCCCCCCCCCCCC[P+](c1ccccc1)(c1ccccc1)c1ccccc1.O=C([O-])C(F)(F)F | HCT-116 | cell growth, live-cell imaging |  | 5 µM, control at 90% confluence |  | cell confluence | 2.87%
CN1C(=O)C2(NN=C(c3ccccc3)S2)c2ccccc21 (stereo not shown) | H2373 and H2461 mesothelioma | MTT |  | 10 µM, 24 h |  | viability loss | 60 to 80%
CCn1cc(-c2cc(Cn3ccnc3)cc3c2CCN([C@H](c2cc(OC)ccn2)C2CC2)C3=O)c(C(F)(F)F)n1 | ASPC1 | cell growth, inhibitor |  | 120 h |  | EC50 | > 30000 nM
CCN(Cc1c(F)cccc1OC)c1ccc(CO)c(Cl)c1 | RBE | cell viability, CellTiter-Glo |  |  |  | IC50 | 150 nM
C=CC1=C(C)c2cc3[n-]c(cc4nc(cc5[n-]c(cc1n2)c(C)c5C=C)C(C)=C4CCC(=O)O)c(CCC(=O)O)c3C.[Zn+2] | SH-SY5Y | RNA-seq, refers to: EVA1A mRNA |  | 5 µM, 5 h | reference: untreated cells | fold change | 1.94
OCc1ccc(N2CCc3cccc(F)c3C2)cc1Cl | RBE | cell viability, CellTiter-Glo |  |  |  | IC50 | 170 nM
CCn1cc(-c2cc(Cn3ccoc3=N)cc3c2CCN([C@@H](C)c2cc(OC)ccn2)C3=O)c(C(F)(F)F)n1 | TEN | cell growth |  | 120 h |  | EC50 | 5130 nM
OCc1ccc(-c2nn(Cc3ccccc3Cl)c3ccccc23)o1 | RBE | cell viability, CellTiter-Glo |  |  |  | IC50 | 1420 nM
c1ccc2[nH]ccc2c1 | HCT-8 | RNA-seq, refers to: ANKRD34A |  | concentration not given |  | mRNA level, LS mean | 2.45 counts per million

Compound | cell line | test | test system | setting | how to read | quantity | result
COc1ccc(-n2nc(C(C)=O)s/c2=N\N=C(/C)c2ccc(NC(=O)c3ccc(C)cc3)cc2)cc1 | MCF7 |  |  | 0.312 µM |  | viability | 17.7%
C[C@]12CCCN1CC1=NNC(=O)c3cc(F)cc4[nH]c2c1c34 | HCT-116 colorectal cancer cells | cell viability |  | concentration not given, together with: with temozolomide |  | EC50 | > 3000 nM
OCc1ccc(N(Cc2ccc(F)cc2)Cc2ccc(F)cc2)cc1Cl | RBE | cell viability, CellTiter-Glo |  |  |  | IC50 | 2600 nM
Cc1cccc(-c2[nH]c(CNc3ccccc3F)nc2-c2ccc3ncnn3c2)n1 | RPMI-8226 | flow cytometry, refers to: CD135 |  | concentration not given | reference: comparator compound alone | surface marker level | 167%
Cc1sc2c(c1C)C(c1ccc(Cl)cc1)=N[C@@H](CC(=O)NCCCCCCCCNC(=O)COc1cccc3c1C(=O)N(C1CCC(=O)NC1=O)C3=O)c1nnc(C)n1-2 (stereo partly shown) | 4T1 | Annexin V-FITC/PI flow cytometry |  | concentration not given |  | late apoptotic and necrotic cells | 10.4% and 8.89% and 10.7%
Clc1ccc(N/N=C(\c2ccccc2)c2ccccn2)nc1 | BT-474 | annexin V flow cytometry |  | 0.5 µM, 48 h |  | apoptotic cells | ~20%
COc1cc2c(Oc3ccc(NC(=O)C4(C(=O)Nc5ccc(F)cc5)CC4)cc3F)ccnc2cc1OCCCN1CCOCC1 | hiPSC-derived cardiomyocytes (iCell) | impedance (xCELLigence Cardio) |  | concentration not given, 2 h | reference: control | beat rate | 69.2%
CCCOc1ccc(-c2ccc(C#N)cc2)cc1 | BeWo | RNA sequencing |  | 5 µM, low dose, log2 fold change and q cut-offs |  | number of downregulated genes | 195
Cc1cnc(NC2CCOCC2)nc1-n1cnc(C(=O)NC(CN)c2cc(F)cc(Cl)c2)c1 (stereo not shown) | Rec1 | flow cytometry |  | 1 µM, 24 h |  | S phase cells | 14.4%
Cn1cc(Nc2nccc(-c3ccc4c(c3)CN(C3COC3)CC[C@H]4NC(=O)c3cn(C(C)(C)C)nn3)n2)cn1 | human B cells |  |  | 100 nM, 64 h, stimulation-upregulated genes, together with: CD40L, anti-IgM, IL-4 |  | number of downregulated genes | 122
NC(=O)NOCCCCCCCCCCCCCC[P+](c1ccccc1)(c1ccccc1)c1ccccc1.O=C([O-])C(F)(F)F | HCT-116 | cell growth, live-cell imaging |  | 5 µM, control at 90% confluence |  | cell confluence | 2.18%
CSc1cccc(Nc2ncc3cc(-c4c(Cl)cccc4Cl)c(=O)n(C)c3n2)c1 | hiPSC-derived cardiomyocytes (iCell) | impedance (xCELLigence Cardio) |  | concentration not given, 2 h | reference: control | beat rate | 94.6%
O=c1[nH]nc(OCCCc2ccc(Cl)cc2)c(NCc2cccnc2)c1Br | HEK-293T | RNA-seq GSEA, refers to: HALLMARK_NOTCH_SIGNALING |  | concentration not given | direction not given | normalized enrichment score | -1.28
CCN(Cc1ccccc1C)c1ccc(CO)c(Cl)c1 | RBE | cell viability, CellTiter-Glo |  |  |  | IC50 | 510 nM
O=[N+]([O-])c1cc(Br)c(O)c(C=NNc2ccc(C(F)(F)F)cc2)c1 | HCT-116 | cell cycle analysis |  | IC50, 24 h |  | cells in G2/M phase | 37.1%
COC(=O)[C@]12CCC(C)(C)C[C@H]1[C@H]1C(=O)C=C3[C@@]4(C)C=C(C#N)C(=O)C(C)(C)[C@@H]4CC[C@@]3(C)[C@]1(C)CC2 | HepG2 | high content imaging, refers to: DNA structure |  | 6 h, representative mode |  | point of departure | 1.17 µM
COc1cnc2cccc(N3CCc4c(cc(Cn5ccnc5C)cc4-c4cn(C)nc4C(F)(F)F)C3=O)c2c1 | Raji | cell growth, inhibitor |  | 120 h |  | EC50 | 17300 nM
CC(C)c1ccc(C2C(C#N)=C3N=C(N)c4ccccc4N3C3=C2C(=O)CCC3)cc1 (stereo not shown) | BV-2 | phagocytosis, high-content imaging |  | geometric mean, together with: pHrodo-myelin uptake |  | EC50 | 20800 nM
COc1ccc(NC(=S)N/N=C/c2cccc3cc4ccccc4nc23)cc1 | HeLa | annexin V/PI |  | concentration not given, 48 h, dosed at IC50 |  | late apoptotic cells | 17.7%
Cn1cc(-c2ccc(-c3cncc(Cl)c3N3CCC4(CCNC4=O)CC3)cc2)cn1 | COLO 205 | gene expression, microarray, refers to: TCAF2 mRNA |  | concentration not given, 2 h | reference: untreated cells | log2 fold change | 2.62
